Measured values pooled from the literature.
Numbers after ± are the reported error.

CC[C@H](C)[C@@H]1NC(=O)[C@H](CCCNC(=N)N)NC(=O)C[C@@H](c2cccc3ccccc23)NC(=O)[C@@H]2CSSC[C@H](NC(=O)C[C@@H](c3cccc4ccccc34)NC(=O)[C@H](CCCNC(=N)N)NC(=O)[C@@H]3CCCN3C(=O)[C@@H]3CCCN3C1=O)C(=O)N[C@@H](Cc1ccccc1)C(=O)N1CCC[C@H]1C(=O)N[C@@H](CC(=O)O)C(=O)N[C@@H](CC(=O)O)C(=O)N[C@@H](Cc1ccccc1)C(=O)N2
IC50 (BT-474 (HER2+); cell growth; 72 h): 0.28 ± 0.021 µM

C=C(C)CC(OC)C(O)C(=O)NC(OC)C1CC(OC(=O)c2ccccc2)C(C)(C)C(CC(O)C(C)C2Cc3c(C)c(O)cc(O)c3C(=O)O2)O1 (single isomer, unassigned; (-))
IC50 (IMR-90; cell growth or viability): 0.081 µM

O=C(N=P12CN3CN(CN(C3)C1)C2)c1cccc[c]1[Pd][Br].c1cncc(P(c2cccnc2)c2cccnc2)c1
IC50 (human PBMC; cytotoxicity, MTT; 24 h, 1% DMSO): 298 ± 14 µM

Cc1nn(-c2ccccc2)c(O)c1C(c1cccc([N+](=O)[O-])c1)c1c(C)nn(-c2ccccc2)c1O
IC50 (HEK293; cell growth or viability, MTT; 48 h): > 40 µM

C=C(C)CC(OC)C(O)C(=O)NC(OC)C1CC(=C)C(C)(C)C(CC(O)C(C)C2Cc3c(C)c(O)cc(O)c3C(=O)O2)O1 (single isomer, unassigned; (+))
IC50 (IMR-90; cell growth or viability): 0.049 µM

COc1cccc2c1cc([N+](=O)[O-])c1c(C(=O)O)cc3c(c12)OCO3
IC50 (HK-2; cell growth or viability): 103 µM

CC[C@H](C)[C@@H]([C@@H](CC(=O)N1CCC[C@H]1[C@H](OC)[C@@H](C)C(=O)N[C@H](C)[C@@H](O)c1ccccc1)OC)N(C)C(=O)[C@@H](NC(=O)[C@@H](NC)C(C)C)C(C)C
IC50 (LNCaP; cell growth or viability, MTT; 72 h): 0.00106 µM

C=C(C)C[C@H](OC)[C@H](O)C(=O)N[C@@H](OC)[C@@H]1C[C@H](O)C(C)(C)[C@@H](C[C@H](O)[C@@H](C)[C@H]2Cc3c(C)c(O)cc(O)c3C(=O)O2)O1
IC50 (H522-T1; cell growth or viability): 0.0009 µM

O=C(Nc1ccc(Br)cc1)c1cc(Br)cc(Br)c1O
IC50 (HEK293T; cell growth, PrestoBlue; 72 h): 5.7 µM

C1=CCCC=CCC1.C1=CCCC=CCC1.[Cl][Hg-]([Cl])[Cl].[Cl][Hg-]([Cl])[Cl].[Pt+][c]1ccccc1P(=Nc1ccccc1)(c1ccccc1)c1ccccc1.[Pt+][c]1ccccc1P(=Nc1ccccc1)(c1ccccc1)c1ccccc1
IC50 (Jurkat; cell viability, MTT; 24 h): 0.43 ± 0.06 µM

Cc1cc(C)c(-n2ccn(-c3c(C)cc(C)cc3C)c2=[Se])c(C)c1.[Cl][Au]
IC50 (A2780; cell growth or viability; 72 h, 3D culture): 7.2 µM

CC(C)C[C@H](NC(=O)[C@H](CC(C)C)NC(=O)[C@H](CCC(=O)O)NC(=O)[C@H](Cc1c[nH]cn1)NC(=O)[C@H](CC(C)C)NC(=O)[C@H](Cc1c[nH]cn1)NC(=O)[C@H](CCC(=O)O)NC(=O)[C@H](CC(C)C)NC(=O)[C@H](CC(C)C)NC(=O)[C@H](CCC(=O)O)NC(=O)[C@H](Cc1c[nH]cn1)NC(=O)[C@@H](N)CC(C)C)C(=O)N[C@@H](CCC(=O)O)C(=O)N[C@@H](Cc1c[nH]cn1)C(N)=O
IC50 (RG; cell viability, MTT; 0.5 h, pH 6.0): > 100 µM

[Cl][Au].[Se]=c1n(C2CCCCC2)ccn1C1CCCCC1
IC50 (A2780; cell growth or viability; 72 h, 3D culture): 2.2 µM

O=C(Cc1ccc2ccccc2c1)N[C@H](Cc1ccccc1)C(=O)N[C@H](Cc1ccccc1)C(=O)N[C@H](Cc1ccc(O)cc1)C(=O)N[C@H](Cc1ccc(OP(=O)(O)O)cc1)C(=O)O
IC50 (HS5; cell growth or viability, MTT): 354 µg/mL

O=C(O)c1ccc([PH]([Au][Cl])(c2ccccc2)c2ccccc2)cc1
IC50 (IMR-90; cell growth or viability, resazurin; 72 h): 22.8 µM

CC(C)C[C@H](NC(=O)[C@H](CC(C)C)NC(=O)[C@H](CCC(=O)O)NC(=O)[C@H](CCC(=O)O)NC(=O)[C@H](CC(C)C)NC(=O)[C@H](Cc1c[nH]cn1)NC(=O)[C@H](Cc1c[nH]cn1)NC(=O)[C@H](CC(C)C)NC(=O)[C@H](CC(C)C)NC(=O)[C@H](CCC(=O)O)NC(=O)[C@H](CCC(=O)O)NC(=O)[C@@H](N)CC(C)C)C(=O)N[C@@H](Cc1c[nH]cn1)C(=O)N[C@@H](Cc1c[nH]cn1)C(N)=O
IC50 (HK-2; cell growth or viability, MTT; pH 6): > 100 µM

C[C@H]1[C@H](OC(=O)CCC(=O)Oc2ccc(C(N)=S)cc2)O[C@@H]2O[C@@]3(C)CC[C@H]4[C@H](C)CC[C@@H]1[C@@]24OO3
IC50 (K562/Adr; cell growth or viability, CCK-8; 72 h): 8.48 µM

CC[C@@H](C(=O)[C@@H](C)[C@@H](O)[C@H](C)[C@@H]1O[C@@H]([C@@H](CC)C(=O)O)CC[C@@H]1C)[C@H]1O[C@]2(C=C[C@H](N)[C@]3(CC[C@@](C)([C@H]4CC[C@](O)(CC)[C@H](C)O4)O3)O2)[C@H](C)C[C@@H]1C
IC50 (HMLER CD24high/CD44low; CellTiter-Blue; 72 h): > 50 µM

COc1cc(C=CC(=O)CC(=O)C=Cc2ccc(OC(=O)CCC(=O)OC3OC4OC5(C)CCC6C(C)CCC(C3C)C46OO5)c(OC)c2)ccc1OC(=O)CCC(=O)OC1OC2OC3(C)CCC4C(C)CCC(C1C)C24OO3 (stereo not shown)
IC50 (RPMI-7951; cell viability, MTT; 24 h, together with: deferoxamine 20 µM, 1 h before): 1.18 ± 0.7 µM

CC(C)C[C@H](NC(=O)[C@H](CC(C)C)NC(=O)[C@H](Cc1c[nH]cn1)NC(=O)[C@H](CCC(=O)O)NC(=O)[C@H](CC(C)C)NC(=O)[C@H](Cc1c[nH]cn1)NC(=O)[C@H](CCC(=O)O)NC(=O)[C@H](CC(C)C)NC(=O)[C@H](CC(C)C)NC(=O)[C@H](Cc1c[nH]cn1)NC(=O)[C@H](CCC(=O)O)NC(=O)[C@@H](N)CC(C)C)C(=O)N[C@@H](CCC(=O)O)C(=O)N[C@@H](Cc1c[nH]cn1)C(N)=O
IC50 (RG; cell viability, MTT; 0.5 h, pH 7.4): > 100 µM

CCOP(=O)(OCC)OCCCCOC(=O)CC1=C(C)C(=Cc2ccc([S+](C)[O-])cc2)c2ccc(F)cc21 (stereo not shown)
IC50 (A549 rho0 (mitochondria-deficient); cell viability, trypan blue exclusion; 24 h): 124 µM

CC(C)C[C@H](NC(=O)[C@H](CC(C)C)NC(=O)[C@H](CC(=O)O)NC(=O)[C@H](CCCCN)NC(=O)[C@H](Cc1ccccc1)NC(=O)CN)C(=O)N[C@@H](CCCCN)C(=O)N[C@H]1CSCc2cccc(c2)CSC[C@@H](C(=O)N[C@@H](CC(C)C)C(=O)N[C@H](C(=O)N[C@@H](CCCCN)C(=O)N[C@H](C(=O)N[C@H](C(=O)N[C@@H](CC(C)C)C(=O)N[C@@H](Cc2ccccc2)C(N)=O)C(C)C)[C@@H](C)O)C(C)C)NC(=O)[C@H](CCCCN)NC(=O)[C@H](C)NC(=O)[C@H](C)NC1=O
IC50 (U87; cell proliferation, CCK-8; 48 h): 4.89 µM

C[C@@H]1O[C@@H](O[C@H]2[C@H](O)[C@@H](O)[C@H](OC[C@H]3O[C@@H](O[C@H]4CC[C@@]5(C)[C@@H](CC[C@]6(C)[C@@H]5C=C[C@]57OC[C@@]8(CCC(C)(C)C[C@H]85)[C@@H](O)C[C@]76C)[C@]4(C)CO)[C@H](O)[C@@H](O)[C@@H]3O)O[C@@H]2CO)[C@H](O)[C@H](O)[C@H]1O
IC50 (HEK293T; cell viability, MTT; 48 h): > 100 µM

Cc1cc(C)c(N2CCN(c3c(C)cc(C)cc3C)C2=[Se])c(C)c1.[Cl][Ag]
IC50 (A2780; cell growth or viability, MTT; 72 h): 0.7 µM

CCN(CC)C1=[S+][Au-]2([S]1)[c]1ccccc1-c1cccc[c]12
IC50 (BT-333 glioblastoma; MTT; 72 h): > 100 µM

O=C(Cc1ccc2ccccc2c1)N[C@H](Cc1ccccc1)C(=O)N[C@H](Cc1ccc(O)cc1)C(=O)N[C@H](Cc1ccccc1)C(=O)N[C@H](Cc1ccc(O)cc1)C(=O)O
IC50 (HS5; cell growth or viability, MTT): > 500 µg/mL

CC(C)C[C@H](NC(=O)[C@H](CCCCN)NC(=O)[C@H](CC(C)C)NC(=O)[C@H](CC(C)C)NC(=O)[C@H](CCCCN)NC(=O)[C@H](CCCCN)NC(=O)[C@H](CC(C)C)NC(=O)[C@H](CC(C)C)NC(=O)[C@H](CCCCN)NC(=O)[C@H](CC(C)C)NC(=O)[C@H](CC(C)C)NC(=O)[C@H](CCCCN)NC(=O)[C@H](CCCCN)NC(=O)[C@@H](N)CC(C)C)C(N)=O
IC50 (RG; cell viability, MTT; 0.5 h, pH 6.0): 11.3 µM

NC1CC1c1ccc(NC(=O)C(Cc2cccc3ccccc23)NC(=O)OCc2ccccc2)cc1 (stereo not shown)
IC50 (MV4-11 (AML)): 7.6 ± 0.9 µM

A few entries again:
CCOP(=O)(OCC)OCCCCOC(=O)CC1=C(C)C(=Cc2ccc([S+](C)[O-])cc2)c2ccc(F)cc21 (stereo not shown)
IC50 (A549 rho0 (mitochondria-deficient); cell viability, trypan blue exclusion; 24 h): 124 µM

[Cl][Au].[Se]=c1n(C2CCCCC2)ccn1C1CCCCC1
IC50 (A2780; cell growth or viability; 72 h, 3D culture): 2.2 µM

C=C(C)CC(OC)C(O)C(=O)NC(OC)C1CC(=C)C(C)(C)C(CC(O)C(C)C2Cc3c(C)c(O)cc(O)c3C(=O)O2)O1 (single isomer, unassigned; (+))
IC50 (IMR-90; cell growth or viability): 0.049 µM

C=C(C)CC(OC)C(O)C(=O)NC(OC)C1CC(OC(=O)c2ccccc2)C(C)(C)C(CC(O)C(C)C2Cc3c(C)c(O)cc(O)c3C(=O)O2)O1 (single isomer, unassigned; (-))
IC50 (IMR-90; cell growth or viability): 0.081 µM
